Assay results from different studies.
A part holds a random share of what one study measured.
Sequence of UniProt O15294 (whole entry, looked up): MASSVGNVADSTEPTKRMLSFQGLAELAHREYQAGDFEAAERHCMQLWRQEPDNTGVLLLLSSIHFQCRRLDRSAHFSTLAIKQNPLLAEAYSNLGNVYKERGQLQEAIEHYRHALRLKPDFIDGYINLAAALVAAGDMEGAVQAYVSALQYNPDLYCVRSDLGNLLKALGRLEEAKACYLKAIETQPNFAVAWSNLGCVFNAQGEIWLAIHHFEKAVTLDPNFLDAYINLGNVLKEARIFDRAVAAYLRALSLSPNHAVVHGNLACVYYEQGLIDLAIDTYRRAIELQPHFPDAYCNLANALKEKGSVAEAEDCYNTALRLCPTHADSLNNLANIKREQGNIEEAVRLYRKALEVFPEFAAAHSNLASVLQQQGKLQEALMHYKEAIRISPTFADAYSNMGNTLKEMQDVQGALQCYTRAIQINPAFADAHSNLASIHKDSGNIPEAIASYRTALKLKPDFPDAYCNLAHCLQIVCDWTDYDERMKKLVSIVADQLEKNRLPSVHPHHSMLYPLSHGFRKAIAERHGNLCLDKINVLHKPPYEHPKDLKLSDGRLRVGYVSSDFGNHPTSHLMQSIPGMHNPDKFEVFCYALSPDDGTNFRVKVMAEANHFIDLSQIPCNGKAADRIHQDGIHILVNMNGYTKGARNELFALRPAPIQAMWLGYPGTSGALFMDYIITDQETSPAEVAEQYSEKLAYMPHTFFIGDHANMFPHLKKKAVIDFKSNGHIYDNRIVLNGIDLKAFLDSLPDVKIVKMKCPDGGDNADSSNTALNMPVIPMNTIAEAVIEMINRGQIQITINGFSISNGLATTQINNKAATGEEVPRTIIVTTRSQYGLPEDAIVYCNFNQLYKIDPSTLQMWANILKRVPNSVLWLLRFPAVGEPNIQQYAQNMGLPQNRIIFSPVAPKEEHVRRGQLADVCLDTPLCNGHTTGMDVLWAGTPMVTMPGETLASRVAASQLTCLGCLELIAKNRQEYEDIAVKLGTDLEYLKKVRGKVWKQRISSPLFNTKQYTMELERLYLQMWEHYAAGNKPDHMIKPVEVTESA

Set 1
Target: Centromere-binding protein 1, full length, His-tagged (CBF1, Saccharomyces cerevisiae, UniProt P17106, residues 1-351)
Sequence of UniProt P17106 (whole entry, looked up): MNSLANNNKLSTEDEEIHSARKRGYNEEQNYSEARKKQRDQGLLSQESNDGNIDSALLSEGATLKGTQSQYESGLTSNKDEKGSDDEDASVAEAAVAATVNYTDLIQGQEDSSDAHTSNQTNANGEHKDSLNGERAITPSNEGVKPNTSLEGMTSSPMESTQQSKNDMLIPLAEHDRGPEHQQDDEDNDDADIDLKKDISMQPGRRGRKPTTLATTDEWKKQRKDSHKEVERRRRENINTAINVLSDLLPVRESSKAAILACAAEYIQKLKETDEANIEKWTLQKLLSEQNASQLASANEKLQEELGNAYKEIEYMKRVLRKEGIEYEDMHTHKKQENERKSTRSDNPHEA
Method: competition protein-binding microarray
Form: double-stranded DNA, one strand shown
Matrix: in vitro
Concentration: 2 µM
Notes: whole 60-bp probe, lowest competitor level
Together with: Pho4 competitor, 0.05 µM
Direction: higher = stronger binding
All sequences stand within: … GTCTTGATTCGCTTGACGCTGCTG
| Sequence | fluorescence intensity [a.u.] |
| --- | --- |
| GCCTTAAGATTCTGTCATGCGGGTGTCGATAGCGTC | 86.5 |
| CGGGGTTAAGTTTGGTCGGTGGGTGGCTTGCAGCAG | 66.8 |
| TCTCCCTCACTGCATCCCGTGACGGGTTTCTTAGCA | 660 |
| AAAGCGGTAATTTTTCACGTGATCTCACATATCTAT | 5720 |
| GTCTTGTCTCATTTTCACGTGGGTTTCCCCACTTCA | 600 |
| ATTCTGAGCAATATCTCCGTGCCAGAAATAAGCCCC | 69.5 |
| TATTTTTTCACCATCAACGTGGTGATTCACTTATTC | 117 |
| CGGGGTTAAGTTTGAACAGTGGGTGGCTTGCAGCAG | 75.7 |

Set 2
Target: RNA binding protein fox-1 homolog 2, RRM domain, GST-SBP tag (RBFOX2, Homo sapiens, UniProt O43251-10, residues 100-194)
Method: RNA Bind-n-Seq
Form: RNA
Matrix: in vitro
Concentration: 365 nM
Notes: natural RNA segment, single round, ends assumed
Baseline: no-protein control
Direction: higher = stronger binding
All sequences stand within: GGGAGUUCUACAGUCCGACGAUC … UGGAAUUCUCGGGUGCCAA
Construct (chain): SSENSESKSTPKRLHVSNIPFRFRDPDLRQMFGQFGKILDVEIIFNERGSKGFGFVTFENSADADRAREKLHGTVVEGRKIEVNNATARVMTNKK
| Sequence | RBNS enrichment (R) |
| --- | --- |
| GGAGAAUGGAGUAGAGUCCCUUGGUACAAGCUCCUCUCCCCCCUCUUUUCCCACCAACUCCUAUUUCCCUACCAACCAAGGAGCCUCCAGAAGGAAAGGAGGAAGAAAUG | 0.708 |
| GUGCUAUUGUUUUAAAAAAAUAAUUAAAAAACAGUUGGCGUUAAUAAAAAUGUCAAUGUGAAACUGAUGUCCUGAUUCACUUUAUUCUCUUUCUUUGAUAAGAAACUAAA | 0.543 |
| CUCUCCGUCCCAGAGGCCACGAUCCAUCGGGCUGUUCUGAGGACUUCAAGGCAUCUCUUCCCCAUUCACCUAAAACCUCUGGCCUGAACAGAAAAGAGCCGGAGCUCUAA | 0.416 |
| UACUGAUUUACAAUUGAGUAGAUACCAAAAACAGAGUGGCAAGUGUAUUUUAGUAGCAGUUGAGGCAAUUAGUUUUAGGGUGAAUUUUUCACUGUUGAUUUUACUUUAAG | 0.418 |
| CAUAUAUGGCAGCAUUCAGCUCUCACCCAACACUUGUGCUGGGCUUCCCUUCAGCAGCCUCCCAGACCUCCCCAUUCUUCCAGGAUGCUGUCUGCCAGGUCACCACUCUG | 0.43 |
| CUAGUCAUGUAAGCCACUAAGAUAGAAGGCCAGUCUCAGUUUCCCUAGGGAAGAGCCCAUCCUGGAGGCAGCCACAGUUUCCUCCCAUGGAGAUGGUCUGGAUAAAAGCC | 0.259 |
| UGCUCUUAGUUACAUGUAAAAUUUUAGAUUUCUAAAACAGGUGGGCAAUCAUUUUGAAUACUGUUCUGUGACCCUGACUGCUAGUUCUGAGGACACUGGUGGCUGUGCUA | 0.511 |
| GCCGGGACUGGAGUCCCUGGGCCCUCAACACUGGAUGCAAAUGUGUUACACUGGAGCCUGCUGCAGGCCAGCUCUCUGCUCUUCACUGCUUCCCUUGACUGGGGAGACUG | 1.87 |

Other studies, line by line
Concentration: concentration not given
| Molecule | tested on | assay | test system | conditions | scale | quantity | result |
| --- | --- | --- | --- | --- | --- | --- | --- |
| NVP-AEW541 | HuT78 | – | – | unit not given | baseline: untreated control | viability | 1.12 |
| NFFPQYQINPWIATD | OGT (Homo sapiens, UniProt O15294) | binding, phage display NGS | peptide | – | baseline: input library | enrichment fold change | 3.3 |
| capivasertib | HuT78 | – | – | unit not given | baseline: untreated control | viability | 1.02 |

For quick reference, copied from above (set 2):
| Sequence | RBNS enrichment (R) |
| --- | --- |
| CAUAUAUGGCAGCAUUCAGCUCUCACCCAACACUUGUGCUGGGCUUCCCUUCAGCAGCCUCCCAGACCUCCCCAUUCUUCCAGGAUGCUGUCUGCCAGGUCACCACUCUG | 0.43 |
| GCCGGGACUGGAGUCCCUGGGCCCUCAACACUGGAUGCAAAUGUGUUACACUGGAGCCUGCUGCAGGCCAGCUCUCUGCUCUUCACUGCUUCCCUUGACUGGGGAGACUG | 1.87 |
